Results pooled from the literature.
Parts stem from different laboratories: compare values within a part only. Positions count from the first letter of the parent shown.

Block 1
Target: OGT, full length, His-tagged (human)
Method: phage display, sequencing
Matrix: in vitro
Tested at: 1 µg OGT
Setting: single substitutions, 15-mer displayed peptide, unchanged parent 5.27
Relative to: input library
Reading: higher = stronger binding
Quantity: fold enrichment
Parent: peptide; GDFPVMFMPKYSIIY
GDFPVMFMPKLSIIY [Y11L]: 4.1 fold
GDFPVMFMPKHSIIY [Y11H]: 1.26 fold
GDFPVMYMPKYSIIY [F7Y]: 4.75 fold
GDMPVMFMPKYSIIY [F3M]: 3.35 fold
GDFPGMFMPKYSIIY [V5G]: 19 fold
GDFPVMFHPKYSIIY [M8H]: 1.51 fold
GDFPVMFMPKYSIIS [Y15S]: 1.05 fold
GDFPVMFMPKTSIIY [Y11T]: 1.04 fold

Block 2
Target: CCNA1, cyclin fold, Cln2 fusion (human)
Method: yeast growth competition, sequencing
Matrix: yeast
Setting: weak parent motif
Relative to: not given
Reading: higher = stronger binding
Quantity: normalised enrichment score
Parent: viral docking peptide; PTARRRLLHDLDT; partner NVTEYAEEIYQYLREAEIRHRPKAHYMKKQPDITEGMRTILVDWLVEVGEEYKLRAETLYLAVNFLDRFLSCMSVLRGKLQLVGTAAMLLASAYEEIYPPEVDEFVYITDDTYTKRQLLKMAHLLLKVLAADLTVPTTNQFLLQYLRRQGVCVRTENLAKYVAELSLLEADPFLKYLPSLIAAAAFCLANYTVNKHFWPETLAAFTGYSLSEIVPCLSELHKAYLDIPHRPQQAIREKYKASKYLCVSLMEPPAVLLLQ
PTARARLLHDLDT [R5A]: 0.376
PTAARRLLHDLDT [R4A]: -0.0426
PTARRRLAHDLDT [L8A]: -0.0807
PTARAAAAHDLDT [R5A R6A L7A L8A]: 0.144
PTARKRLLHDLDT [R5K]: 0.423
PTARKRLFHDLDT [R5K L8F]: 1.22
PTARKRLLFDLDT [R5K H9F]: 1.48
PAARRRLLHDLDT [T2A]: 0.162
PTARRRLLHALDT [D10A]: 0.131
ATARRRLLHDLDT [P1A]: 0.42

Block 3
Target: Histone acetyltransferase KAT6A, winged helix 2, GST fusion (KAT6A, Homo sapiens, UniProt Q92794, residues 85-181)
Method: protein binding microarray
Form: double-stranded DNA, one strand shown
Matrix: in vitro
Tested at: not given
Setting: 8-mer, flanks averaged, mean of 2 arrays, mostly near background
Relative to: not given
Reading: higher = stronger binding
Quantity: E-score
Construct (chain): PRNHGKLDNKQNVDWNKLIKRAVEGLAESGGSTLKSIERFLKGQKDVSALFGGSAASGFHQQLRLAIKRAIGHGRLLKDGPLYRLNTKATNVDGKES
ATTCCTAA: -0.0367
CAAATTGC: 0.0813
CGATCCTA: -0.107
GATGCGCC: 0.125
AACGCGAA: -0.0271
CTCGGACC: 0.157
CGAACTCA: 0.108
ATCATTGA: 0.0543

Single results of other studies
PhoQ, residues 284 288 289 292 302 303 SSLVEF  fold induction (PhoP, residues 12 14 15 18 19 IQSYL (Escherichia coli, UniProt P23836); Sort-seq, measured: YFP reporter; E. coli; PhoQ-PhoP variant library, together with: 10 µM Mg2+; relative to: high Mg2+ state, higher = stronger signaling): 1.67
